Experimental data pooled from the literature.
Each line is one published result; not all experiments were run side by side. Values joined by “and” are separate records of one study, mostly repeats; a detail may differ. ± gives the spread as reported.
Target: Acetylcholinesterase (ache, Electrophorus electricus, UniProt O42275)
Chain of UniProt O42275 (whole entry, looked up): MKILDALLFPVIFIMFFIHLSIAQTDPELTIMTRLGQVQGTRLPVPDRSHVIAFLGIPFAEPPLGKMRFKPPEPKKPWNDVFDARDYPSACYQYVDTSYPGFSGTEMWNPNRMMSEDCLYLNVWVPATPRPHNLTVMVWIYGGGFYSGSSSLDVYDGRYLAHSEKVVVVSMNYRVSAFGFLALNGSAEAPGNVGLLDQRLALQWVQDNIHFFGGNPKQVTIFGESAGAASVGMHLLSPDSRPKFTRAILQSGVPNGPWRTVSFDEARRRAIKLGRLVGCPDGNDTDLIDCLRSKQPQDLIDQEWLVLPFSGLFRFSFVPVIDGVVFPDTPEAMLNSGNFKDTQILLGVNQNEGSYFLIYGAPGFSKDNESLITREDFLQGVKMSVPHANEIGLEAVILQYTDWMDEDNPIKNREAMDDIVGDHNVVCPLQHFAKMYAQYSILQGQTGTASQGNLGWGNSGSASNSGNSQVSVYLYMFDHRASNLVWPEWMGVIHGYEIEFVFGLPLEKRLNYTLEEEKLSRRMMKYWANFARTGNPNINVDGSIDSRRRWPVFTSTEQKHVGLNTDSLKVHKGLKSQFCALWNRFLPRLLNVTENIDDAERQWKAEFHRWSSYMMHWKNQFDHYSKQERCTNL

| Compound | assay | setting | inhibition |
| --- | --- | --- | --- |
| Cc1ccnc(Nc2c3c(nc4ccccc24)CCCC3)c1 | enzyme activity, inhibitor, Ellman | 50 µM | 13.1% |
| Cc1ccc(/C=C/C(=O)c2ccc(N3CCNCC3)cc2)cc1 | enzyme activity, inhibitor, Ellman | 10 µM | 56.6% |
| CN(C)c1ccc(CNC(=O)CCCn2c(=O)c3cccn3c3ccc(F)cc32)cc1 | Ellman method | 10 µM | 3.62 ± 2.26% |
| COc1cccc(CCNc2c(NC3CCN(Cc4ccccc4)CC3)c(=O)c2=O)c1 | enzyme activity, inhibitor, Ellman | 25 µM | 54.6% |
| C[n+]1ccc2c(c1)[nH]c1ccccc12 | enzyme activity, inhibitor | 0.1 µg/mL | 78% |
| O=S(=O)(F)CCc1cn(-c2ccc(-c3ccccc3)cc2)nn1 |  | 20 µM | 47.9% |
| C[n+]1ccc2c(c1)[nH]c1cc(Br)ccc12 | enzyme activity, inhibitor | 0.1 µg/mL | 87% |
| Cc1cccnc1Nc1c2c(nc3ccccc13)CCC(C)C2 (stereo not shown) |  | 100 µM | 91.1 ± 5.92% |
| O=C(NCc1ccc(-c2ccc(F)cc2)o1)c1ccc(-n2cnc3ccccc3c2=O)cc1 | Ellman method | 10 µM | 4.69 ± 1.62% |
| COc1ccc([N+](=O)[O-])cc1NC(=O)CCC(=O)[O][Zn][O]C(=O)CCC(=O)Nc1cc([N+](=O)[O-])ccc1OC.c1ccncc1 | inhibitor | concentration not given | 72% and 72.7% and 68.7% and 65.3% and 66.1% and 63.2% and 69.3% |
| O=c1c(Nc2ccccc2)c(NC2CCN(Cc3ccccc3)CC2)c1=O | enzyme activity, inhibitor, Ellman | 25 µM | 55.7% |
| O=C(O)CCCN1C(=O)/C(=C/c2cn(-c3ccccc3)nc2-c2ccc(OCc3ccccc3F)cc2)SC1=S |  | 10 µM | > 20% |
| COc1ccc(Nc2c(NC3CCN(Cc4ccccc4)CC3)c(=O)c2=O)cc1 | enzyme activity, inhibitor, Ellman | 25 µM | 64.5% |
| Cc1ccnc(Nc2c3c(nc4ccc(Cl)cc24)CCCC3)c1 | enzyme activity, inhibitor, Ellman | 50 µM | 39.3% |
| Nc1ccc(CCNc2c(NC3CCN(Cc4ccccc4)CC3)c(=O)c2=O)cc1 | enzyme activity, inhibitor, Ellman | 12.5 µM | 60.1% |
| O=C(c1ccc(Nc2c3c(nc4ccccc24)CCCC3)cc1)C1CC1 | enzyme activity, inhibitor, Ellman | 100 µM | 31.9% |
| Cc1c2[nH]c3cc(Br)ccc3c2cc[n+]1C | enzyme activity, inhibitor | 0.1 µg/mL | 92% |
| Cc1ccnc(Nc2c3c(nc4cc(C)ccc24)CCCC3)c1 | enzyme activity, inhibitor, Ellman | 100 µM | 59.3% |
| O=c1c(NCc2ccccc2)c(NC2CCN(Cc3ccccc3)CC2)c1=O | enzyme activity, inhibitor, Ellman | 25 µM | 51.6% |
| COc1ccc(Nc2c3c(nc4ccccc24)CCCC3)cc1 | enzyme activity, inhibitor, Ellman | 100 µM | 50.3% |
| O=c1c(NCCc2ccccc2)c(NC2CCN(Cc3ccccc3)CC2)c1=O | enzyme activity, inhibitor, Ellman | 25 µM | 59% |
| Cc1ccc(Nc2c3c(nc4ccccc24)CCCC3)cc1 | enzyme activity, inhibitor, Ellman | 50 µM | 15.9% |
| O=C(O)c1ccc(Nc2cc(N3CCN(c4cccc(C(F)(F)F)c4)CC3)c3noc4c3c2C(=O)c2ccccc2-4)cc1 |  | 10 µM | > 20% |
| Nc1ccc(Nc2c(NC3CCN(Cc4ccccc4)CC3)c(=O)c2=O)cc1 | enzyme activity, inhibitor, Ellman | 12.5 µM | 68.9% |
| Clc1ccc2nc3c(c(Nc4ccc5ccccc5n4)c2c1)CCCC3 | enzyme activity, inhibitor, Ellman | 50 µM | 72.8% |

A few entries again:
| Compound | assay | setting | inhibition |
| --- | --- | --- | --- |
| Cc1ccnc(Nc2c3c(nc4ccc(Cl)cc24)CCCC3)c1 | enzyme activity, inhibitor, Ellman | 50 µM | 39.3% |
| Nc1ccc(Nc2c(NC3CCN(Cc4ccccc4)CC3)c(=O)c2=O)cc1 | enzyme activity, inhibitor, Ellman | 12.5 µM | 68.9% |
